{"data": "Experimental data pooled from the literature", "note": "Lines come from different studies, so protocols differ."}
{"SMILES": "CCN(CCO)CCCC(C)Nc1ccnc2cc(Cl)ccc12 (centres unmarked)", "system": "human, newly diagnosed glioblastoma", "setting": "oral, 200 mg/dose, platelet decrease grade 1, with RT and TMZ", "endpoint": "patients with adverse event", "result": "66%"}
{"SMILES": "CCN(Cc1nc2c(N)nc3cc(-c4cc[nH]n4)ccc3c2[nH]1)C(C)=O", "test": "grade 1-2 neutrophilia", "system": "human", "setting": "intratumoral, dose not given", "endpoint": "patients with adverse event", "result": "38%"}
{"SMILES": "CC[C@H](C)CCCCC(=O)N[C@@H](CCN)C(=O)N[C@H](C(=O)N[C@@H](CCN)C(=O)N[C@H]1CCNC(=O)[C@H]([C@@H](C)O)NC(=O)[C@H](CCN)NC(=O)[C@H](CCN)NC(=O)[C@H](CC(C)C)NC(=O)[C@@H](Cc2ccccc2)NC(=O)[C@H](CCN)NC1=O)[C@@H](C)O", "system": "human, critically ill adults", "setting": "intravenous, dose not given, median 9 d, RIFLE criteria", "endpoint": "patients developing AKI", "result": "~40%"}
{"SMILES": "COc1ncnn2ccc(-c3cnc4nc(C)n(Cc5nnc([C@@H](C)F)o5)c4c3)c12", "system": "human", "setting": "oral, dose not given, grade 3", "endpoint": "patients with hypotension", "result": "7.1%"}
{"SMILES": "N[C@@H]1c2ccccc2OC12CCN(c1cnc3c(N4CCCc5ncccc54)n[nH]c3n1)CC2", "test": "item: anemia", "system": "human advanced or metastatic solid tumours", "setting": "oral, dose not given, phase Ia", "endpoint": "patients with serious adverse event", "result": "3.6%"}
{"SMILES": "C=CCNc1c(O)cc2c(O)c1C[C@@H](C)C[C@H](OC)[C@H](O)[C@@H](C)/C=C(\\C)[C@H](OC(N)=O)[C@@H](OC)/C=C\\C=C(/C)C(=O)N2", "system": "human unresectable metastatic GIST or sarcoma", "setting": "intravenous, dose not given", "endpoint": "patients with dosing interruptions", "result": "44%"}
{"SMILES": "COc1c(C)cnc(Cn2cc(C#CCCOP(=O)(O)O)c3c(Cl)nc(N)nc32)c1C", "test": "item: diarrhea", "system": "human, advanced solid tumours", "setting": "concentration not given, at least possibly drug-related", "endpoint": "patients with adverse event", "result": "44%"}
{"SMILES": "Cn1ncc(-c2nc(N[C@H]3CC[C@H](N)CC3)ncc2Cl)c1CC1CC1", "test": "item: treatment-related Fatigue", "system": "human patients phase I", "setting": "dose not given", "endpoint": "patients with adverse events", "result": "12.9%"}
{"SMILES": "C[C@@H]1OC(=O)NN=C1c1ccc(-c2ccc(F)cc2)c(C(F)(F)F)c1", "test": "phase I trial, item: abdominal distension all grades", "system": "human patients", "setting": "10 mg loading then 0.5 mg daily", "endpoint": "patients with adverse event", "result": "0%"}
{"SMILES": "CCN1[C@@H](C(=O)NC23CCC(C(=O)O)(CC2)CC3)[C@H](c2cccc(Cl)c2F)[C@]2(C(=O)Nc3cc(Cl)ccc32)C12CCCCC2", "test": "item: any-grade treatment-related nausea", "system": "human, advanced solid tumours", "setting": "oral, dose not given, all sample A patients", "endpoint": "patients with adverse event", "result": "14.3%"}
{"SMILES": "Cn1cncc1-c1c(F)cncc1NC(=O)c1c(N)nn2cc(F)cnc12", "system": "human patients", "setting": "oral, up to 40 mg once daily", "endpoint": "patients grade ≥3 Lymphocyte count decrease", "result": "0%"}
{"SMILES": "C[C@]1(O)C[C@@](N)(c2ccc(-c3nc4n(c3-c3ccccc3)COc3ccncc3-4)cc2)C1", "system": "human, advanced or metastatic solid tumours", "setting": "intermittent, dose escalation total, any grade", "endpoint": "patients with Pruritus TEAE", "result": "57.1%"}
{"SMILES": "COc1ccc(-c2c(-c3ccc(C#N)c(F)c3)nc(N3CCC(N)CC3)n(C)c2=O)cc1F", "test": "item: decreased appetite", "system": "human patients", "setting": "oral, 60 mg, dose expansion", "endpoint": "patients with serious TEAE", "result": "0%"}
{"SMILES": "O=C1Nc2cc3[nH]nc(-c4ccncc4)c3cc2CN1Cc1ccccc1", "test": "CTCAE v4.03", "system": "human, relapsed or refractory advanced solid tumours", "setting": "intravenous, 6.4 mg/kg", "endpoint": "patients with photopsia", "result": "11%"}
{"SMILES": "O=C(c1ccc(F)c(F)c1Nc1ccc(I)cc1F)N1CC(O)([C@@H]2CCCCN2)C1", "system": "human patients", "setting": "oral, dose not given, dose escalation, tablet", "endpoint": "patients with treatment-related SAE", "result": "6%"}
{"SMILES": "Cc1cn([C@H]2O[C@@H](CO[P@@](=O)(N[C@@H](C)C(=O)OC(C)C)Oc3ccccc3)[C@H](O)[C@H]2F)c(=O)[nH]c1=O", "test": "item: grade 1/2", "system": "human", "setting": "25 mg", "endpoint": "patients with decreased platelets", "result": "0%"}
{"SMILES": "NC(=O)[C@H]1CCN(c2ncnc(N)c2F)C[C@@H]1N1CCC[C@@H](Nc2cc(Cl)cc(C(F)(F)F)c2)C1=O", "system": "human patients", "setting": "oral, dose not given, grade ≥3", "endpoint": "patients with hypocalcemia", "result": "5%"}
{"SMILES": "CCS(=O)(=O)Nc1ccc(Oc2ccc(F)cc2F)c(-c2cn(C)c(=O)c3[nH]ccc23)c1", "test": "item: Sepsis", "system": "human, relapsed/refractory AML", "setting": "oral, dose not given, trial, together with: alone or with venetoclax", "endpoint": "patients with serious adverse event", "result": "5%"}
{"SMILES": "CN(C)C(=O)c1cc2cnc(Nc3ccc(N4CCNCC4)cn3)nc2n1C1CCCC1", "test": "item: Thrombocytopenia, AESI", "system": "human, HR+/HER2− advanced breast cancer", "setting": "oral, dose not given, grade 3, CTCAE v4.03", "endpoint": "patients with adverse event", "result": "0.6%"}
{"SMILES": "C=CC(=O)Nc1cc(Nc2nccc(Nc3cc(Cl)c(F)cc3C(C)(C)O)n2)c(OC)cc1N1CC[C@@H](N(C)C)C1", "system": "human patients", "setting": "oral, 100 mg, treatment-emergent adverse events", "endpoint": "patients with fatigue", "result": "11.1%"}
{"note": "For quick reference, copied from above:"}
{"SMILES": "Cn1ncc(-c2nc(N[C@H]3CC[C@H](N)CC3)ncc2Cl)c1CC1CC1", "test": "item: treatment-related Fatigue", "system": "human patients phase I", "setting": "dose not given", "endpoint": "patients with adverse events", "result": "12.9%"}
{"SMILES": "COc1ncnn2ccc(-c3cnc4nc(C)n(Cc5nnc([C@@H](C)F)o5)c4c3)c12", "system": "human", "setting": "oral, dose not given, grade 3", "endpoint": "patients with hypotension", "result": "7.1%"}
{"SMILES": "Cc1cn([C@H]2O[C@@H](CO[P@@](=O)(N[C@@H](C)C(=O)OC(C)C)Oc3ccccc3)[C@H](O)[C@H]2F)c(=O)[nH]c1=O", "test": "item: grade 1/2", "system": "human", "setting": "25 mg", "endpoint": "patients with decreased platelets", "result": "0%"}
